Assay results from different studies.
Parts stem from different laboratories: compare values within a part only. Several values in a cell are separate wells, animals, samples, runs or records.
Sequence of UniProt P42336 (whole entry, unmodified, looked up): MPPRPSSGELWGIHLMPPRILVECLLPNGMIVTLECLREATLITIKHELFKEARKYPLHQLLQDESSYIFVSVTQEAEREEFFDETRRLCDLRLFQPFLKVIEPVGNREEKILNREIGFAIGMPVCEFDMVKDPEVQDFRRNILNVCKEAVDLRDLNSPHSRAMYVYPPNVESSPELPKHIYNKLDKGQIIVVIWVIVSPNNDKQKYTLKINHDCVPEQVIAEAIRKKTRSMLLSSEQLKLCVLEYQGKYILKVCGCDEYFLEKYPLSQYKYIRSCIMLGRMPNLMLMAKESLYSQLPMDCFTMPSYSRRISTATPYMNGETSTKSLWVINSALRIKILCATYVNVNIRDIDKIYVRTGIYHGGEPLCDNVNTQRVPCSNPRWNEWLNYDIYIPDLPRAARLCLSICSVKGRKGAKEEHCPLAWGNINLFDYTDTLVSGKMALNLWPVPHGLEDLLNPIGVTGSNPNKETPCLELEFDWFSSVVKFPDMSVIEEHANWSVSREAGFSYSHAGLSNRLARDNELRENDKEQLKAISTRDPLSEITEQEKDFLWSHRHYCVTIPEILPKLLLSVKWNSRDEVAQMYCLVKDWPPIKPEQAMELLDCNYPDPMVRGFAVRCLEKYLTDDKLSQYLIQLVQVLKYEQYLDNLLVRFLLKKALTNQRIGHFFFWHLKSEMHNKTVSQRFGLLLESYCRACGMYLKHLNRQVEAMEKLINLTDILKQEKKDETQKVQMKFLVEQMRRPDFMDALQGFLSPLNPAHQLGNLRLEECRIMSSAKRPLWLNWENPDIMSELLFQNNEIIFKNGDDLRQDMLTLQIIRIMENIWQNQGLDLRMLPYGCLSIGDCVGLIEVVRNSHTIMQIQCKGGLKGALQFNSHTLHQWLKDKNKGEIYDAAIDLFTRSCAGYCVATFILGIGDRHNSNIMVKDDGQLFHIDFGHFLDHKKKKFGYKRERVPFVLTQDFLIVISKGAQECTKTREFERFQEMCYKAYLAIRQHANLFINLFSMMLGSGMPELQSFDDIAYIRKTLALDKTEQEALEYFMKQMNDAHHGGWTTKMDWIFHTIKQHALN
Sequence of UniProt Q9Y2H9 (whole entry, looked up): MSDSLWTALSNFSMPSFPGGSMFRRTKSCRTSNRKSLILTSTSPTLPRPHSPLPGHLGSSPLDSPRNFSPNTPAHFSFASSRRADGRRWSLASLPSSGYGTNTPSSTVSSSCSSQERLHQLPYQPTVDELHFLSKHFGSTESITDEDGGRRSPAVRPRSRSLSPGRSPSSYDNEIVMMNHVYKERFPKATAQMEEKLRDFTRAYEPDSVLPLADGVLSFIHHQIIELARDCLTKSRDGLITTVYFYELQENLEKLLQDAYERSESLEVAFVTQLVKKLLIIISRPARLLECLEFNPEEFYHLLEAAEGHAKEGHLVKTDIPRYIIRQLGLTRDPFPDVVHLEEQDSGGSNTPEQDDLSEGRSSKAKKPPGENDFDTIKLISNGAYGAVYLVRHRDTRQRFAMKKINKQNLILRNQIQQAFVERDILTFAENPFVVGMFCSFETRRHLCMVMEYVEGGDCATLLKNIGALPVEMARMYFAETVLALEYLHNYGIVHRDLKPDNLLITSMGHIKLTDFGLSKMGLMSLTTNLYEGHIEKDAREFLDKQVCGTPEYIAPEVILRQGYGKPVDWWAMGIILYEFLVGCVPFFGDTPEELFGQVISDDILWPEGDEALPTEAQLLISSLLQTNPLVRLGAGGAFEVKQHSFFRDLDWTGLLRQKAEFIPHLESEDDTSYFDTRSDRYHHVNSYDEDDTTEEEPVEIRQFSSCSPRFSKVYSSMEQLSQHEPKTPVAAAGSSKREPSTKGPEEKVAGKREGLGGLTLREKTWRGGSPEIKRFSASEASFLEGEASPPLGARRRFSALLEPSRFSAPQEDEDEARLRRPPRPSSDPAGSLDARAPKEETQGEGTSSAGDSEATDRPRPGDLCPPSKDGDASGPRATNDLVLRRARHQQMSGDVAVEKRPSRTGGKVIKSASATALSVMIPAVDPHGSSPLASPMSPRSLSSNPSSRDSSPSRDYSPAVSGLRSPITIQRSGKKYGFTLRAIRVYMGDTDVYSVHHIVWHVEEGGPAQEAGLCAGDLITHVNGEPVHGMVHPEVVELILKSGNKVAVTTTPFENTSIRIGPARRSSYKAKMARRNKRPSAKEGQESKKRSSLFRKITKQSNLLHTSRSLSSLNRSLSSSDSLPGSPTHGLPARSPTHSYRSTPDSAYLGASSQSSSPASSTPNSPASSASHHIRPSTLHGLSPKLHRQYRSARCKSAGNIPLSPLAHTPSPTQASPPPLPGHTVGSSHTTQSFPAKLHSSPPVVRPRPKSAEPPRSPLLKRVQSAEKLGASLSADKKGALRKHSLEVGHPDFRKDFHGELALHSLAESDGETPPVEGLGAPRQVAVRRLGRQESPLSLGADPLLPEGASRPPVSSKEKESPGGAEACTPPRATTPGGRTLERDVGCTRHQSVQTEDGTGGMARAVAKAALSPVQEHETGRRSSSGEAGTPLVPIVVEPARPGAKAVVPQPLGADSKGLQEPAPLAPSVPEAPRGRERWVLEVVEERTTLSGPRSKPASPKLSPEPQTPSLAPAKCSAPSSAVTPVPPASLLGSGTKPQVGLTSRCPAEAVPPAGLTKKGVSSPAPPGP
Sequence of UniProt P51813 (whole entry, looked up): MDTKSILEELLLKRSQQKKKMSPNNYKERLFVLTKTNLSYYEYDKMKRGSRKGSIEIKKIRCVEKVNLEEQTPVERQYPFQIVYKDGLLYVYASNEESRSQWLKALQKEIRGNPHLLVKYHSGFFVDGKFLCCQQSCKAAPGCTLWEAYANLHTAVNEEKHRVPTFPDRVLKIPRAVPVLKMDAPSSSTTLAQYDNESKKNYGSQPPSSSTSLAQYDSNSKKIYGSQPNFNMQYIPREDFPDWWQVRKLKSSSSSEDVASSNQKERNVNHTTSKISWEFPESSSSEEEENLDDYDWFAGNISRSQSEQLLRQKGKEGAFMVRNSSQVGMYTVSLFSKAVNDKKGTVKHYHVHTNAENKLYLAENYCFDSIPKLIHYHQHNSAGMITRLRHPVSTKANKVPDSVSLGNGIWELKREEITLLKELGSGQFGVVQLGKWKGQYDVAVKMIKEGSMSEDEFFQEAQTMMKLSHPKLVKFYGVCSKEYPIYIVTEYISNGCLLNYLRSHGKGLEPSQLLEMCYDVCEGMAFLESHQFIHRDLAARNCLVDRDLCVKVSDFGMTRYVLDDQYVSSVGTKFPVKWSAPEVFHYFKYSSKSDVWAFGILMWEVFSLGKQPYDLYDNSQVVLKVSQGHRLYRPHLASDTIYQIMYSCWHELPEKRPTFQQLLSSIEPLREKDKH
Sequence of UniProt P00519 (whole entry, unmodified, looked up): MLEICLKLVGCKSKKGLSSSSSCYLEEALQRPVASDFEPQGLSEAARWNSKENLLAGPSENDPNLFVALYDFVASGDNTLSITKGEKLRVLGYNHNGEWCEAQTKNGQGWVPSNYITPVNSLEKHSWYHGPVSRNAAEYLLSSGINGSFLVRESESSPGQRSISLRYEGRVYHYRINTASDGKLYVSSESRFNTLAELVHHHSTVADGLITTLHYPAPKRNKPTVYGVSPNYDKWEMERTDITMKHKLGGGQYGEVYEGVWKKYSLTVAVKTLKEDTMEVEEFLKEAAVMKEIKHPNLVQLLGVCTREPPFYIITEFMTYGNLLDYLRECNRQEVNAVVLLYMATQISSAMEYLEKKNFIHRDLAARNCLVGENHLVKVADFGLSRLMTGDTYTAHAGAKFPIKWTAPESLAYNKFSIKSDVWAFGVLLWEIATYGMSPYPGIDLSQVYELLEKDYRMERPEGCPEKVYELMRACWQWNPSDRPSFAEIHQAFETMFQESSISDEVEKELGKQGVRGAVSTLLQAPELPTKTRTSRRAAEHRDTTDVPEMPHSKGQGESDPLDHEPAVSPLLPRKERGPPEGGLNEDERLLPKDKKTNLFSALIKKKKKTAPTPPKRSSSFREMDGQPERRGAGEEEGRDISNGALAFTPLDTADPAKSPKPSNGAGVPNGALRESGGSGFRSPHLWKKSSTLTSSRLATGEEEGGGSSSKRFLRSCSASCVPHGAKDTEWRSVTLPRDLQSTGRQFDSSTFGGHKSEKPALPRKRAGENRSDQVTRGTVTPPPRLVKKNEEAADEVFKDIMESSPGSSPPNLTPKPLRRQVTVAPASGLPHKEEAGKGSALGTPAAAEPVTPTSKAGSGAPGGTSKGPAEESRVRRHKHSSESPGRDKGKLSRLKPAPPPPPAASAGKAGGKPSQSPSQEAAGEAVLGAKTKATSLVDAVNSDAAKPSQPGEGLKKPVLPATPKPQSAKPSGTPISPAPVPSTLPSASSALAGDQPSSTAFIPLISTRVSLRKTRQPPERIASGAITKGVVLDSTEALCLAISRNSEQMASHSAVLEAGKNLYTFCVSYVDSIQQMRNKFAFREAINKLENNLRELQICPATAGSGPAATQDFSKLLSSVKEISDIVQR
Sequence of UniProt Q13554 (whole entry, looked up): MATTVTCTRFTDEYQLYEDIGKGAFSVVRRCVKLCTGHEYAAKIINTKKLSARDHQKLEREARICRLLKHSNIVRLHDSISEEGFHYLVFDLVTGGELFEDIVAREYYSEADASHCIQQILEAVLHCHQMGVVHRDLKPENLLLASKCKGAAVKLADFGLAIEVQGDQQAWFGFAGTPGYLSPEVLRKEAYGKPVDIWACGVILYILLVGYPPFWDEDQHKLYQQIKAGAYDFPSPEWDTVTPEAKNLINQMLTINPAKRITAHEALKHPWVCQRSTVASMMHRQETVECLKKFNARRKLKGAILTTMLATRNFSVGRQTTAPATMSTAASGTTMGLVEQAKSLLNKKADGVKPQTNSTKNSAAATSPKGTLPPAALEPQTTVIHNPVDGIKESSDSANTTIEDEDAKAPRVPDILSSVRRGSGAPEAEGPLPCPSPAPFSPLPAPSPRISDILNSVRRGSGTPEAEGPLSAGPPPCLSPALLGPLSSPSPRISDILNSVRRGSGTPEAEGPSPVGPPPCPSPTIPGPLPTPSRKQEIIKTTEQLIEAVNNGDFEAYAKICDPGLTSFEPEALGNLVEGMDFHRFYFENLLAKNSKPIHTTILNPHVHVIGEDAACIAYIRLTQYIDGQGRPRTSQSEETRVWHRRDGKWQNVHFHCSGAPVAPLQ

Series 1
SMILES: CC(=O)C1=C(C)N(c2cccc(C(F)(F)F)c2)C(=O)N[C@@H]1c1ccc(C#N)nc1
Observed: cell-free assay
Method: competition with immobilised ligand
Concentration: 1 µM
| target | remaining binding |
| --- | --- |
| Calcium/calmodulin-dependent protein kinase type II subunit beta (CAMK2B, Homo sapiens, UniProt Q13554) | 95.7% |
| Serine/threonine-protein kinase ULK2 (ULK2, Homo sapiens, UniProt Q8IYT8) | 100% |
| Calcium/calmodulin-dependent protein kinase type II subunit gamma (CAMK2G, Homo sapiens, UniProt Q13555) | 100% |
| Receptor-type tyrosine-protein kinase FLT3 (FLT3, Homo sapiens, UniProt P36888, D835Y) | 93.9% |

Series 2
Target: Serine/threonine-protein kinase DCLK2 (DCLK2, Homo sapiens, UniProt Q8N568)
Observed: enzyme activity
Mode: inhibitor
Concentration: 0.5 µM
Baseline: control
Target sequence (Q8N568 1-766): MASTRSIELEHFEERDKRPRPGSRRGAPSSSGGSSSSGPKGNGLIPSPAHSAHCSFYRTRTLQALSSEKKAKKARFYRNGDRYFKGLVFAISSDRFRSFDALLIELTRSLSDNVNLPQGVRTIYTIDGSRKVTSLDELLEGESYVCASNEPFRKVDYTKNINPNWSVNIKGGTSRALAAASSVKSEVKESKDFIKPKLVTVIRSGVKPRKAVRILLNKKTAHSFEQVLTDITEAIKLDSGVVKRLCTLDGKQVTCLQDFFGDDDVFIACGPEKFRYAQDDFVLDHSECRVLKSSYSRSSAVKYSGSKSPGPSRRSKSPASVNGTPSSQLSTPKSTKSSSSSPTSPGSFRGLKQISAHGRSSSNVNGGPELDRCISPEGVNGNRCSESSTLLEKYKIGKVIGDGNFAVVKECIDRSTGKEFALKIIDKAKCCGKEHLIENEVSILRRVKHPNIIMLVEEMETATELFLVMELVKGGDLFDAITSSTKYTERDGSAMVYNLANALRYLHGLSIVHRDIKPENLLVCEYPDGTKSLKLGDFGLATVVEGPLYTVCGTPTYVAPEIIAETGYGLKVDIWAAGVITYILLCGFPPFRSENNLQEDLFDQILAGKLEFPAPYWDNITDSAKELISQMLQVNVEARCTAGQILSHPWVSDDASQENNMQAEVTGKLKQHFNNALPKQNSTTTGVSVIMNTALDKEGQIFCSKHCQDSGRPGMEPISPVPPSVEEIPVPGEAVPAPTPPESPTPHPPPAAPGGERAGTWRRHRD
| SMILES | remaining activity [%] |
| --- | --- |
| COc1ccc(OC)c2c(=S)c3ccccc3[nH]c12 | 94.6 |
| O=C(Nc1cccc(Nc2cc(Nc3cccc(C(F)(F)F)c3)ncn2)c1)C1CC1 | 101 |
| C#Cc1cccc(Nc2ncnc3cc(OCCOC)c(OCCOC)cc23)c1 | 102 |
| O=C1NC(=O)C(c2cn(CCCn3ccnc3)c3ccccc23)=C1Nc1ccccc1 | 96.3 |
| O=C1NC(=O)C(c2cn(CCCO)c3ncccc23)=C1c1cnccn1 | 90.1 |
| Nc1[nH]nc2nc3ccccc3nc12 | 94.6 |
| CO[C@H]1C[C@@H]2CC[C@@H](C)[C@@](O)(O2)C(=O)C(=O)N2CCCC[C@H]2C(=O)O[C@H]([C@H](C)C[C@@H]2CC[C@@H](O)[C@H](OC)C2)CC(=O)[C@H](C)/C=C(\C)[C@@H](O)[C@@H](OC)C(=O)[C@H](C)C[C@H](C)/C=C/C=C/C=C/1C | 99.2 |
| COc1cc2ncnc(Nc3ccc(Oc4ccccc4)cc3)c2cc1OC | 99.5 |
| COc1cc2ncnc(Nc3ccc(F)c(Cl)c3)c2cc1OCCCN1CCOCC1 | 101 |
| O=C(O)c1ccc2c3c1cccc3c(=O)n1c3ccccc3nc21 | 96.7 |
| Cc1nc(-c2ccccc2)c(-c2ccncc2)o1 | 97 |
| CN(C)c1ccc(C=C2C(=O)Nc3ccccc32)cc1 | 100 |
| O=S(=O)(c1cccc2cnccc12)N1CCCNCC1 | 83.9 |
| O=c1c2ccccc2[nH]c(=S)n1CCN1CCC(=C(c2ccc(F)cc2)c2ccc(F)cc2)CC1 | 101 |

Series 3
Structure (SMILES): CC(C)C(=O)N1CCN(c2nc(OC[C@@H]3CCCN3C)nc3c2CCN(c2cccc4cccc(Cl)c24)C3)C[C@@H]1CC#N
Observed: binding
Mode: competitor
Method: NanoBRET
Cell line: HEK293
KRAS Q61H: GTPase KRas (KRAS, Homo sapiens, UniProt P01116, Q61H)
| target | concentration | normalized BRET |
| --- | --- | --- |
| KRAS Q61H | 5.08 nM | 99.2% and 97.4% and 107% |
| KRAS Q61H | 1.69 nM | 102% and 103% and 96.3% |
| KRAS Q61H | 137 nM | 102% and 96.8% and 95.2% |
| GTPase KRas (KRAS, Homo sapiens, UniProt P01116, G13D) | 33.3 µM | 59.6% and 55.6% and 43.2% |
| KRAS Q61H | 15.2 nM | 107% and 94% and 92.9% |
| GTPase KRas (KRAS, Homo sapiens, UniProt P01116, G12D) | 5.08 nM | 97.3% and 101% and 90.7% |

Series 4
SMILES: CN1CCN(C(=O)c2ccc(NC(=O)Nc3ccc(N(C)c4ccnc(Nc5ccc(CS(C)(=O)=O)cc5)n4)cc3)cc2)CC1
Observed: binding
Concentration: 1 µM
| target | method | remaining binding [%] |
| --- | --- | --- |
| Phosphatidylinositol 4,5-bisphosphate 3-kinase catalytic subunit alpha isoform (PIK3CA, Homo sapiens, UniProt P42336, I800L) | – | 98 |
| Cytoplasmic tyrosine-protein kinase BMX (BMX, Homo sapiens, UniProt P51813) | competition with immobilised ligand | 59 |
| Microtubule-associated serine/threonine-protein kinase 1 (MAST1, Homo sapiens, UniProt Q9Y2H9) | – | 61 |
| Tyrosine-protein kinase ABL1 (ABL1, Homo sapiens, UniProt P00519, F317L) | – | 34 |
| 5'-AMP-activated protein kinase catalytic subunit alpha-1 (PRKAA1, Homo sapiens, UniProt Q13131) | competition with immobilised ligand | 82 |

Some of these lines once more (series 4):
| target | method | remaining binding [%] |
| --- | --- | --- |
| Phosphatidylinositol 4,5-bisphosphate 3-kinase catalytic subunit alpha isoform (PIK3CA, Homo sapiens, UniProt P42336, I800L) | – | 98 |
| Cytoplasmic tyrosine-protein kinase BMX (BMX, Homo sapiens, UniProt P51813) | competition with immobilised ligand | 59 |
